Assay results from different studies.
Each numbered part is a random draw from the data of one study; scales do not carry over between parts. Substitutions count along the parent as printed.

Series 1
Target: Sal-like protein 4, full length isoform A (SALL4, Homo sapiens, UniProt Q9UJQ4, residues 1-1053)
Chain of UniProt Q9UJQ4 (whole entry, looked up): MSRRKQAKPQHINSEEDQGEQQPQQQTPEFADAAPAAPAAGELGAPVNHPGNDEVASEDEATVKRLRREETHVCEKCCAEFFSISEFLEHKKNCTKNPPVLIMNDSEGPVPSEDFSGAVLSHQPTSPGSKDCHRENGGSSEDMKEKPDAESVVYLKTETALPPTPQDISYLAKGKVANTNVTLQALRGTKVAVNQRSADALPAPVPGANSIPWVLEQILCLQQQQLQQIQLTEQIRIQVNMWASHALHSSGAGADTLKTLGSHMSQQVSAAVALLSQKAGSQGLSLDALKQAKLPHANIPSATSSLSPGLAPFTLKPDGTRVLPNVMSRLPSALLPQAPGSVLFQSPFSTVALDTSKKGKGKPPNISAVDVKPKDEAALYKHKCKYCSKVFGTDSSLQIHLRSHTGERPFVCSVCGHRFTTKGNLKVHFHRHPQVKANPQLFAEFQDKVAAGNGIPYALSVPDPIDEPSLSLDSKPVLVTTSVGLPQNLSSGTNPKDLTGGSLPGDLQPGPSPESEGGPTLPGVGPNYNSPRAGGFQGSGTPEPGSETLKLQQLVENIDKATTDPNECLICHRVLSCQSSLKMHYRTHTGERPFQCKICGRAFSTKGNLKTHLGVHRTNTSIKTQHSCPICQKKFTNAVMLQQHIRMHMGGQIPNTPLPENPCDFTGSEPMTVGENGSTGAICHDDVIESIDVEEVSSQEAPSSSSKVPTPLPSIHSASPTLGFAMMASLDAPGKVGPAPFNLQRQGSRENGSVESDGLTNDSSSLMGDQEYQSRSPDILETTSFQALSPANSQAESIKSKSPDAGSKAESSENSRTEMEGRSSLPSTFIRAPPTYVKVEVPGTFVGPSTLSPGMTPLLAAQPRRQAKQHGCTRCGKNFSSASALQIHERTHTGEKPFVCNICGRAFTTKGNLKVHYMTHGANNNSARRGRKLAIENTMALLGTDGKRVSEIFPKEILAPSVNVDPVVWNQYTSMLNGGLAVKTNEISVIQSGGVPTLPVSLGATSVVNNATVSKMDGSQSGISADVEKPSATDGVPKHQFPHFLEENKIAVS
Technique: universal PBM
Molecule type: double-stranded DNA, one strand shown
Medium: in vitro
Tested at: 600 nM
Notes: 8-mer, flanks averaged, mean of replicates
Direction: higher = stronger binding
Endpoint: E-score
ATGAACGC: 0.052
CCGAAAAC: -0.0466
CCTTCCCA: -0.173
GTGAAGAA: 0.0855
AGATCGGA: 0.0879
CAAGACGA: 0.0021
GCAACAAC: -0.0101
CGGTAAAC: 0.0536
AGATAATC: 0.149
CGGAGTCC: -0.234
CCCTGGAA: -0.241
CGGGCTGC: -0.317
CCTATCAA: 0.0802
ATTACTAG: 0.233
CATTGAAC: 0.132
ACTCGTAA: 0.188
CTACAAAA: 0.195
CCTCATCC: -0.117
ATGTAAGA: 0.278
ATTCCTTC: 0.157
ACTACATC: 0.0948

Series 2
Target: Ras GTPase-activating protein-binding protein 1, full length (G3BP1, Homo sapiens, UniProt Q13283)
Chain of UniProt Q13283 (whole entry, looked up): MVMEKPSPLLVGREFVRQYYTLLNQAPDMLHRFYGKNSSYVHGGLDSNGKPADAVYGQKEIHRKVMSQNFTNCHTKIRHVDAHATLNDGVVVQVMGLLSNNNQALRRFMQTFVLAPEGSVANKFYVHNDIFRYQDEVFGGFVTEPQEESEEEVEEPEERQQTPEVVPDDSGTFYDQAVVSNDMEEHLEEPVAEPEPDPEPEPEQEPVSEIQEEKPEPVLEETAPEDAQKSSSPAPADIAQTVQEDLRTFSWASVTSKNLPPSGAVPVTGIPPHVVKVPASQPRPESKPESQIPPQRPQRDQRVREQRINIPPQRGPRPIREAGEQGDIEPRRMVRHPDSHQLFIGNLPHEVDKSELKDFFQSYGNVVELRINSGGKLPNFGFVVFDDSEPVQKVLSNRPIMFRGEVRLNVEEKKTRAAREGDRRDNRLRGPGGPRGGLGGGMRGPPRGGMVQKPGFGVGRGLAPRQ
Technique: RNA Bind-n-Seq
Molecule type: RNA
Medium: in vitro
Tested at: 200 nM
Notes: whole 134-nt RNA, ends assumed
With: 150 mM KCl
Relative to: input library
Direction: higher = stronger binding
Endpoint: log2 enrichment
All sequences stand within: GGGAGUUCUACAGUCCGACGAUC … UGGAAUUCUCGGGUGUCAAGG
UCAAGUCCUGUGCUACACAUCGUAUGUACCGAAUCGGAAAAAGGAAAAAGGAGGAAAGUAUUAUGUUACGCCGUUCGGAUCUGCACUUCC: -0.827
UGGCCCUGGUGGCAGGCGGGGAGGAAGAGGUGGCCUCAUGGAUCGUGGUGGUCCCGGUGGAAUGUUCAGAGGUGGCCGUGGUGGAGACAG: 0.553
AGUCCUGUGCUACACAUCGUAUGUACCGAAUCGGGUUUUUUUGGGAAAAAGGGUGGGAAAGUAUUAUGUUACGCCGUUCGGAUCUGCACU: 0.013
UCAAGUCCUGUGCUACACAUCGUAUGUACCGAAUCGGAAAGGGGAAAGGAAAGGAAAGUAUUAUGUUACGCCGUUCGGAUCUGCACUUCC: -1.07
CACAGACAACACGCACCCACACAGACACAGAGGGAAGGGGUUGGGAUGGGGACAGGGUGCACAGCAGGGCGGGGUAGGACCCCAAAACCU: 1.89
CCUCACCACUCCUUUCUCUUUCAUUCAGUUCCGCUCAGUGGACGAGACUACCCAGGCUAUGGCCUUUGAUGGCAUCAUCUUCCAGGGCCA: 0.243
CUCAAGUCCUGUGCUACACAUCGUAUGUACCGAAUCGGGUUGGUUGGGGUUGGGAAAGUAUUAUGUUACGCCGUUCGGAUCUGCACUUCC: 0.658
UCAAGUCCUGUGCUACACAUCGUAUGUACCGAAUCGGUGGUUUGGAAAAAAAGGAAAGUAUUAUGUUACGCCGUUCGGAUCUGCACUUCC: -0.789
UGGCCCUGGUGGCAUGCGGGGAGGUAGAGGUGGCCUCAUGGAUCGUGGUGGUCCCGGUGGAAUGUUCAGAGGUGGCCGUGGUGGAGACAG: 0.394
UGGCCCUGGUGGCAUGCGGGGAGGAAGAGGUGGCCUCAUGGAUCGUGGUGGUCCCGGUGGAAUGUUCAGAGGUGGCCGGGGUGGAGACAG: 0.187

Series 3
Target: CCND1, cyclin fold, Cln2 fusion (human)
Technique: yeast growth competition, sequencing
Medium: yeast
Notes: weak parent motif
Relative to: not given
Direction: higher = stronger binding
Endpoint: normalised enrichment score
Parent: PKMYT1 docking peptide (human); SFEPRNLLSLFED; partner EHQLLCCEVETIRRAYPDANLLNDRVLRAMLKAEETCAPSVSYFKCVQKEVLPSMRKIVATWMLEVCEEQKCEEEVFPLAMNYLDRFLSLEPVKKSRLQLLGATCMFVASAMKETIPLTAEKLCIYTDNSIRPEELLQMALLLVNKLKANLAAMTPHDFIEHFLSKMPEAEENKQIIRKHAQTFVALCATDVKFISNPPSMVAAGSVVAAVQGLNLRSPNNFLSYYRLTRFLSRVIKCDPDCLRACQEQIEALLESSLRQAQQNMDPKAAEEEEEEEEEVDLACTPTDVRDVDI
SFKPRNLLSLFED [E3K]: 0.304
SKEPRNLLSLFED [F2K]: -0.0764
SFEPRNLLSLFEC [D13C]: 1.56
SFRPRNLLSLFED [E3R]: -0.349
QFEPRNLLSLFED [S1Q]: 0.289
SQEPRNLLSLFED [F2Q]: 0.834
SFEPRNLLSCFED [L10C]: 0.715
SFEPRELLSLFED [N6E]: 0.691
CFEPRNLLSLFED [S1C]: 0.596
SFEGRNLLSLFED [P4G]: 0.885
SIEPRNLLSLFED [F2I]: 0.397
SFEPRNLLDLFED [S9D]: 1.12
SFEPRNLLSLVED [F11V]: 0.76
SFEPRNLLSLFET [D13T]: 0.693
SFEPRNLDSLFED [L8D]: 0.0158
SFEPRNLLSLFDD [E12D]: 0.998
SFEPRNLLSLFYD [E12Y]: 1.11

Series 4
Target: Interferon regulatory factor 3, full length, phosphomimetic (IRF3, Homo sapiens, UniProt Q14653, residues 1-427, S386D/S396D/S398D/S402D/T404D/S405D)
Technique: protein-binding microarray
Molecule type: double-stranded DNA, one strand shown
Medium: in vitro
Tested at: 2540 nM top
Notes: 60-bp whole probe
With: salmon DNA 0.4 mg/ml
Relative to: random background probes
Direction: higher = stronger binding
Endpoint: fitted relative affinity
All sequences stand within: GCCTAGCAC … GTCTTGATTCGCTTGACGCTGCTG
Residues (chain): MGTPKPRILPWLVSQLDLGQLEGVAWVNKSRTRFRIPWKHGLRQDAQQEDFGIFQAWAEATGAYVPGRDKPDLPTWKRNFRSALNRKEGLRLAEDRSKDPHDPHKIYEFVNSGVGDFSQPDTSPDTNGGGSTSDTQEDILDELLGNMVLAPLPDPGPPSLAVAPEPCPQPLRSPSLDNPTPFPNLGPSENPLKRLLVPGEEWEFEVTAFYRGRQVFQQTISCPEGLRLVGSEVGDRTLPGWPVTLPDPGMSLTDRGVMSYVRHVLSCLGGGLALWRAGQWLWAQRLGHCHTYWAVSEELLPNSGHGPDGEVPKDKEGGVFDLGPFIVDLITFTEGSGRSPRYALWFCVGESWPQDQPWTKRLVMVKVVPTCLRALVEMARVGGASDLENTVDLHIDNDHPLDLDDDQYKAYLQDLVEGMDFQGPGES
TAAGATTTCAGTTCCGATTAGTGCTAG: 3.8 z-score
TTTGTCATCTATAATGGATATGTGCTA: 0.62 z-score
TTAGGTTTCGGGTCTGGGTTAGTGCTA: 5.09 z-score
GACGGTTTCGACTTTCTGGACGTGCTA: 3.94 z-score
TCATTTGTCATCTATAATACTGTGCTA: 1.16 z-score
GACGGACTGCTACTACTGACGTGCTAG: -0.566 z-score
TTAGGTTTCGGTATCGCTTAGTGCTAG: 8.57 z-score
ACACATCTCACTCTAATCTCGTGCTAG: 1.01 z-score
GACGTTTTTCATTTTTTTTTGTGCTAG: 1.68 z-score
TTAGATTTCAGTTCCGATTTGTGCTAG: 4.18 z-score
GACGAACTGAGGCTCGAGACGTGCTAG: -0.5 z-score
TCATTTTTCATCATTGCACTGTGCTAG: 1.51 z-score
GACGGTTTCCTACTGCGGACGTGCTAG: 5.66 z-score
TCACATTTGGAAAATGTAACTGTGCTA: 0.988 z-score

Series 5
Target: RING finger protein unkempt homolog, zinc fingers 1-6, GST-SBP tag (UNK, Homo sapiens, UniProt Q9C0B0, residues 30-357)
Technique: RNA Bind-n-Seq
Molecule type: RNA
Medium: in vitro
Tested at: not given
Notes: RNA with constant flanks, ends assumed
Relative to: input RNA pool
Direction: higher = stronger binding
Endpoint: bound/input enrichment
All sequences stand within: GGGAGUUCUACAGUCCGACGAUC … CAACAGAGGAUUGAGCAUCA
Residues (chain): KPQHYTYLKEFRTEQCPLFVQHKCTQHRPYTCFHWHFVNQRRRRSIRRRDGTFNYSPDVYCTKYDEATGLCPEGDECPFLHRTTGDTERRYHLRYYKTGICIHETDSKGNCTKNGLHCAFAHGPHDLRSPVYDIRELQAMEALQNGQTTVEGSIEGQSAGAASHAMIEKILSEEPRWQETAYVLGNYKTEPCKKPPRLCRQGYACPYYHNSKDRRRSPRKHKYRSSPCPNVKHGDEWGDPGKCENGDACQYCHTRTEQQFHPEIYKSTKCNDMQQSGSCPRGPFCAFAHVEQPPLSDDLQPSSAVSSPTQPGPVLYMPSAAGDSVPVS
UUGAUCGAGUAAUGAUUAUCUAAGUAACUGUUGGGGACUGUGGAUAAAUUAGCAGGAGGGCCGUUUAUGAGAGCUGGCUUCAGGACGCUCUGUCCUCUGGAAGGAGUUUGUCUUCUGUGU: 0.816 ratio
CCCCAAUACCAUUUGCAGGUCUGGAACUGCACUCUCUUUUUUAAAAAACAUGUAUACAUUUCCGGGCUGUAGAUUUAUUUUCCUGGUUUUGUUUUUCAUUGCUGACUUUUGAGCACAGAA: 1.54 ratio
UUGUAUCGCUCUUACCAUAUGCCUGUUUGCAAAUCAUGAUCUUCACUGGGCUGGAAUUUUAUCCGAUUUUUGUUUUGUUUUUCCCUUUUUUCUCCUAGGCUGUCACUCUGUUGUUCUCCC: 4.45 ratio
GUGUUUGAGGAGAUGAAUGUGGAUCUGCAGGAGGAGCUGCCGUCCCUGUGGAACAGCCGCGCCGGUUUCUACGUCAACACGUUCCAGAGCAUCGCGGGCCUGGAGGAAAACUUCCACAAG: 0.0564 ratio
GUCACUUGUGUUGCUGCCUCUCCUCACAAGGACUCUGUGUUUCUUUCAUGCAGCGAGGACAACCGAAUUUUACUCUGGGAUACCCGCUGUCCCAAGCCAGCAUCACAGAUUGGCUGCAGU: 0.513 ratio
AUUAUCACAGAAGAACCUGAGAUUGGCAAUAUAGAAAAACCAGUAGAAAUUUUUCAUAUAACCGAACAUUUUUGUCUUGGUAGAAGACGCCUUCAUCUCUUUGGGAGAGAUAGCACUAUC: 1.52 ratio
AUUUGUUUCUUAUAAUAGCCCCUGGAGGAAUUGCUACACCCCCAGUGUAUGGUCAGCUUCCCGCUUUAUAUUUGCUCCAUAAUGACAUGAAUAAUGCAAGAUAUCUUUGGAAAAGAAUAC: 0.381 ratio

Some of these lines once more (series 1):
AGATCGGA: 0.0879
CGGAGTCC: -0.234
CCCTGGAA: -0.241
ATGAACGC: 0.052
AGATAATC: 0.149
GCAACAAC: -0.0101
CCGAAAAC: -0.0466
CCTTCCCA: -0.173
CTACAAAA: 0.195
CCTATCAA: 0.0802
